# Experimental data gathered from unrelated publications.
# Numbered parts are unrelated; each lists some results of a single study. Positions count from the first letter of the parent shown.
# UniProt P08173, sequence (whole entry, looked up): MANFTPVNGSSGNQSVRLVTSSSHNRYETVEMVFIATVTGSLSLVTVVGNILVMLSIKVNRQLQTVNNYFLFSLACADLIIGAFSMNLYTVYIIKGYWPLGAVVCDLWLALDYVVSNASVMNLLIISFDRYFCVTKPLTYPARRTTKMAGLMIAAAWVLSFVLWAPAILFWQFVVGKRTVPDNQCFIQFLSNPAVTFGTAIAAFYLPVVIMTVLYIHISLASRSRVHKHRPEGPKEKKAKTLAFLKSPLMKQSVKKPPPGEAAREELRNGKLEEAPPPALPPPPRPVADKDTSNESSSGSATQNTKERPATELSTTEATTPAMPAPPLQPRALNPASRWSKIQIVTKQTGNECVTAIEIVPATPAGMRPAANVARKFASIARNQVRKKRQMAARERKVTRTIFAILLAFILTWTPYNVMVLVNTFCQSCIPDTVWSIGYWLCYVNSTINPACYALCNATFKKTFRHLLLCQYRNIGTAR

# Sample 1
# Target: Prothrombin, mature alpha-thrombin (F2, Homo sapiens, UniProt P00734)
# Technique: aptamer microarray, sandwich
# Molecule type: DNA with 2'F-ANA
# Matrix: in vitro
# Tested at: 200 nM
# Notes: whole 15-mer aptamer, many near background
# Together with: Cy3 exosite-II aptamer, 400 nM
# Reading: higher = stronger binding
# Strand: GGTTGGTGTGGTTGG
Modification,mean fluorescence intensity
2'F-ANA at 1 8 9 12 13 14 15,75.5 a.u.
2'F-ANA at 3 5 6 8 9 11 12 13 14,60.2 a.u.
2'F-ANA at 6 11,439 a.u.
2'F-ANA at 1 2 5 7 10 11 12 14,55.9 a.u.
2'F-ANA at 3 5 9 10 12 13,122 a.u.
2'F-ANA at 1 3 6 7 11,250 a.u.
2'F-ANA at 3 4 5 6 7 8 11 13 14,54.9 a.u.
2'F-ANA at 1 2 8 11 12 13 14,64.3 a.u.

# Sample 2
# Target: CCND2, cyclin fold, Cln2 fusion (human)
# Technique: yeast growth competition, sequencing
# Matrix: yeast
# Notes: weak parent motif
# Reference: not given
# Reading: higher = stronger binding
# Starting sequence: viral docking peptide; KKVKRRLFETREL; partner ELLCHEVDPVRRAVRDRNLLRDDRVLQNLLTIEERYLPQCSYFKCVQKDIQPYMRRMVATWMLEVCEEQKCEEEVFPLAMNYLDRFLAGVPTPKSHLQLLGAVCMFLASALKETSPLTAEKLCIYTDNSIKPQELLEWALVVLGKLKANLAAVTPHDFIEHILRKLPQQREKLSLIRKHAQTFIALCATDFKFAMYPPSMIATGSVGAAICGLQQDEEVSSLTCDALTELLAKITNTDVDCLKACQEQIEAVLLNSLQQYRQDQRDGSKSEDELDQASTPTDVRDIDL
Substitution,normalised enrichment score
KKAKRRLFETREL [V3A],0.346
KKVKRRLFETAEL [R11A],0.00203
KKVKRRLFETRAL [E12A],0.0728
KKVKRRLLETREL [F8L],0.357
KKVKRRLFEAREL [T10A],0.115
KKVKRRLFETREA [L13A],-0.0714
KKVKRRLAETREL [F8A],0.474
KKVKARAFETREL [R5A L7A],0.0896
AKVKRRLFETREL [K1A],0.132
KKVKKRLLETREL [R5K F8L],-0.0854

# Single results of other studies
Molecule,target,test,test system,setting,how to read,quantity,value
"PhoQ, residues 284 288 289 292 302 303 TGYLSA","PhoP, residues 12 14 15 18 19 NMSFL (Escherichia coli, UniProt P23836)","Sort-seq, refers to: YFP reporter",E. coli,"PhoQ-PhoP variant library, together with: 10 µM Mg2+","reference: high Mg2+ state, higher = stronger signaling",fold induction,2.68
CNC(=O)c1cc(C(=O)NC2CC2)cn(Cc2ccccc2)c1=O,"CHRM4 (Homo sapiens, UniProt P08173)","binding, radioligand binding",,10 µM,,inhibition,0.52%

# Repeated from above (sample 1):
Modification,mean fluorescence intensity
2'F-ANA at 1 3 6 7 11,250 a.u.
2'F-ANA at 3 5 9 10 12 13,122 a.u.
